Results from different studies.
Numbered parts are unrelated; each lists some results of a single study.

Study 1 — technique: RNA Bind-n-Seq; form: RNA; medium: in vitro; concentration: 200 nM; notes: whole 134-nt RNA, ends assumed; added: 150 mM KCl; baseline: input library; reading: higher = stronger binding
Target: Fragile X messenger ribonucleoprotein 1, C-terminal low-complexity region (Fmr1, Mus musculus, UniProt P35922)
Oligonucleotide	log2 enrichment
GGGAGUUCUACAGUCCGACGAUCUGUGGACGACAAUGAGGAGACCAUCAAAAAGCGGCUGGAGACCUAUUACAAGGCCACAGAACCUGUCAUCGCCUUCUAUGAGAAACGUGGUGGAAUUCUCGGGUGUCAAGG	-0.733
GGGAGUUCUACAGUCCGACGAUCUUGUGAUUAAGAUUUGUUCUUUUUCUCCCCUCUCUAUAGGAAGAUGAUCCCUAUGAUCUUGAAGAUGUUUCUGCACAGAAAUGAGGGAAAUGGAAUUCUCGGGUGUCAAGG	0.173
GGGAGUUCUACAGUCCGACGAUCUCAAGUCCUGUGCUACACAUCGUAUGUACCGAAUCGGGGUUGGGUUGGUUGGGGAAAGUAUUAUGUUACGCCGUUCGGAUCUGCACUUCCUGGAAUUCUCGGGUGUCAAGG	1.19
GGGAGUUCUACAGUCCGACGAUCUGGGAGGUGGAUUUUGUUUAUUUUUUUAGCUCAUUUCCAGGGGUGGGAAUUUUUUUUUAAUAUGUGUCAUGAAUAAAGUUGUUUUUGAUAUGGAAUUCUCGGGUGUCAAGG	0.185
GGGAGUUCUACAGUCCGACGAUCCAAGUCCUGUGCUACACAUCGUAUGUACCGAAUCGGGCCCCGGCCCCGGCCCCGGGAAAGUAUUAUGUUACGCCGUUCGGAUCUGCACUUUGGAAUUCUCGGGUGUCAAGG	-0.564
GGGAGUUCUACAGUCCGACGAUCAAGUCCUGUGCUACACAUCGUAUGUACCGAAUCGGAAAAAGGAAAAAGGUUUUUGGAAAGUAUUAUGUUACGCCGUUCGGAUCUGCACUUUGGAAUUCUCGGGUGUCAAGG	-1.18
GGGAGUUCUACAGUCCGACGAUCAAGUCCUGUGCUACACAUCGUAUGUACCGAAUCGGGGAGGGGUUUUUGGGGUGGGGAAAGUAUUAUGUUACGCCGUUCGGAUCUGCACUUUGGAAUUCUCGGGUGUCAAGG	1.17
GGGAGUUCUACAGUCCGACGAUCCGGCAGUAGCAGCAGCGCCGGGUCCCGUGCGGAGGUGCUCCUCGCAGAGUUGUUUCUCGAGCAGCGGCAGUUCUCACUACAGCGCCAGGAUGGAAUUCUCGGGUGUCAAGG	-0.504
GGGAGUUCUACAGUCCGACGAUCCUUUGGUUGACAGGAAGUUCCUUUUCCAGGCAGGUCCCGUUGCCACCUCCUGCUCACUCAGUCCCGGGCUCUGCCGAGUGGUCCUGGGAAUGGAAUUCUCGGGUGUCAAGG	0.391
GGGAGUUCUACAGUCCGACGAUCUCCUGUGCUACACAUCGUAUGUACCGAAUCGGCCCCCCCGGGCCCCCCCGGCCCCCCCGGAAAGUAUUAUGUUACGCCGUUCGGAUCUGCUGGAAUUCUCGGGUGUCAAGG	0.261
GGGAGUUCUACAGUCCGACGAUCCCUCAAGUCCUGUGCUACACAUCGUAUGUACCGAAUCGGAAAGGUUUGGUGGAAAGUAUUAUGUUACGCCGUUCGGAUCUGCACUUCCAGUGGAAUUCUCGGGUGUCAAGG	-0.339
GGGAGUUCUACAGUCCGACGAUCCUGUGCUACACAUCGUAUGUACCGAAUCGGGGCCCCCCGGGGCCCCCCGGGGCCCCCCGGGGAAAGUAUUAUGUUACGCCGUUCGGAUCUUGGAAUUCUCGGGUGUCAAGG	-1.59
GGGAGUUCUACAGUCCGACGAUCUCCUGUGCUACACAUCGUAUGUACCGAAUCGGGAAAAAAAGGGUUUUUGGGUUUUUGGGAAAGUAUUAUGUUACGCCGUUCGGAUCUGCAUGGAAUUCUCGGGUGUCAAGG	-0.149
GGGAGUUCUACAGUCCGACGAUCUCAAGUCCUGUGCUACACAUCGUAUGUACCGAAUCGGGGUUUGGUUUGGGUUUGGAAAGUAUUAUGUUACGCCGUUCGGAUCUGCACUUCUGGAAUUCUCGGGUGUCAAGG	-0.174

Study 2 — technique: universal PBM; form: double-stranded DNA, one strand shown; medium: in vitro; concentration: not given; reading: higher = stronger binding
Target: Sal-like protein 4, full length isoform B (SALL4, Homo sapiens, UniProt Q9UJQ4-2, residues 1-616)
Notes: 8-mer, flanks averaged, mean of replicates
Residues (chain): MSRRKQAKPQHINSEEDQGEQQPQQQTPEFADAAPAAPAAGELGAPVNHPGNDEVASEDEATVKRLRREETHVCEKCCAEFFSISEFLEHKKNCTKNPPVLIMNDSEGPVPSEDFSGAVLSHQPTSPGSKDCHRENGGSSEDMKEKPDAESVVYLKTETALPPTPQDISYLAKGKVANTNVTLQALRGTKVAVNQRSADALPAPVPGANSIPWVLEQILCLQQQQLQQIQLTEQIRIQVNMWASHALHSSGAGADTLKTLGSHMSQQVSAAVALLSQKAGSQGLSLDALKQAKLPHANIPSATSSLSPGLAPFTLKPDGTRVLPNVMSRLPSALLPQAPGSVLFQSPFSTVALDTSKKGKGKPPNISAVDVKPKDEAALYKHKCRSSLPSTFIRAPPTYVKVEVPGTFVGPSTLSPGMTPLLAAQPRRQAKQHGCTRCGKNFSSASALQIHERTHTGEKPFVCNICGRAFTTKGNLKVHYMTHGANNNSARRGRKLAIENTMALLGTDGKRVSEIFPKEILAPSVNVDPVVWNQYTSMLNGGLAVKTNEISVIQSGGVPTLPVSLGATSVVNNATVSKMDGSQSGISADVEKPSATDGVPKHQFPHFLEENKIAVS
Oligonucleotide	E-score
AAAAAATG	0.354
TGGCTAAA	0.132
CTCCATCA	0.0126
AACCCTGG	-0.124
AGTCGTGA	-0.0304
CTATTAGA	0.17
GAGTTATC	0.151
CGAATCAA	0.186
ATCTGCTA	0.13
AAGTAGCT	-0.0233
GCCTCGAA	-0.181
ACCCACTC	-0.0468
CAAGCTGA	-0.128
ACTCGACC	-0.222
CCTCATGC	-0.116
CTTATTCA	0.164
AAGAGTCT	0.0544
ACCTCCCG	-0.219
GATAAACC	0.0442
ATAATGTC	0.25

Study 3 — technique: protein-binding microarray; form: double-stranded DNA, one strand shown; medium: in vitro; concentration: 940 nM top; notes: 60-bp whole probe; added: salmon DNA 0.4 mg/ml; baseline: random background probes; reading: higher = stronger binding; all sequences stand within: GCCTAGCAC … GTCTTGATTCGCTTGACGCTGCTG
Target: Interferon regulatory factor 5, full length, phosphomimetic (IRF5, Homo sapiens, UniProt Q13568-2, residues 1-514, S451D/S453D/S456D/S462D)
Oligonucleotide	fitted relative affinity [z-score]
ACTGATTTCCACTTTCTTAAGTGCTAG	1.67
TGTCTGTCTGTCACCCGGACGTGCTAG	0.508
AGTCCGTGGATTGACCAGATGTGCTAG	-0.367
GACGATATCGTGTTTCGAGACGTGCTA	0.529
TTAGGACCGCTTCTCCTTTAGTGCTAG	-0.122
CCCTAATTCTGATTGGATAAGTGCTAG	0.28
GACGGACTGCTTTTCCTGCCGTGCTAG	-0.494
TTAGATTTCGGGACTGGAATAGTGCTA	0.297
TCATCTCAGAATCTCTCACTGTGCTAG	1.21
GTAGGTTTCGGTATCGGTTAGTGCTAG	15.6
GCCGATATCAGTCTCGAGACGTGCTAG	1.42
GTAGGTATCGACACTGGGTTAGTGCTA	4.1
GACGGTATCGGGTATCCGGACGTGCTA	5.68
CGCCCACTCATGCCTCTTAAGGTGCTA	0.698
GGCGGTATCCTTCTCCTGACGTGCTAG	0.603
GACGAACTGGAGACTGGAGACGTGCTA	-0.237
TTAGGACTGGGACTGGGTTTGTGCTAG	-0.19

Study 4 — technique: RNA Bind-n-Seq; form: RNA; medium: in vitro; concentration: 365 nM; baseline: no-protein control; reading: higher = stronger binding
Target: RNA binding protein fox-1 homolog 2, RRM domain, GST-SBP tag (RBFOX2, Homo sapiens, UniProt O43251-10, residues 100-194)
Notes: natural RNA segment, single round, ends assumed
Residues (chain): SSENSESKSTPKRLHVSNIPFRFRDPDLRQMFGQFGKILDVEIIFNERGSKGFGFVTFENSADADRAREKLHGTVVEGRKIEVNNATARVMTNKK
Oligonucleotide	RBNS enrichment (R)
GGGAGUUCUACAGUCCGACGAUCGGGCCAGGUCUCUGUCCGUCCUCUUCCCUGCACAAGUGUGUCGAUCUUAGAUUGCCACUGCUUUCAUUGAAGACCCUCAAUGCCAAGAAACGUGUCCCUGGCCCAUAUUAUGGAAUUCUCGGGUGCCAA	0.381
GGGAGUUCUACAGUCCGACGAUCGAAGCAUUCCCUUGCAACCCGAGCACAUCAGCGAACCCCACGAAAGUGGAAUUUUCUAACAAAAUAAACUUGCUCAUUUGGUCCGUUUUCUGUAACUUUUGCUAAACACUUGGAAUUCUCGGGUGCCAA	0.254
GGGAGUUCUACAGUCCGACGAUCCAGAAACAGAGCACCGUGCAGAACUUCCACAGCUGAUCGGCCUCGCCUCGCAGAUUUGCCAAGUAUCCGCUUCCUGUGGAAGCAAGACCAAAAGGAAAUCAACUGAGUGGUGGAAUUCUCGGGUGCCAA	0.507
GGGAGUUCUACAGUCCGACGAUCCCAGUUUUACGAACAACAGAUUUCUAAAUUAGAGAGGUUAACAAGACAGAUGAUUACUAUGCCUCAUGUGCUGUGUGCUCUUUGAAAGGAAUGACAGCAGACUACAAAGCUGGAAUUCUCGGGUGCCAA	0.57
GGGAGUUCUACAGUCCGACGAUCUUGAUGGCAAAAAAAAAAAAGCGACUUCGAGUUUGCUCCCCUUUGCUUGAAGAGACCCCCUCCCCCUUCCAACGAGCUUCCGGACUUGUCUGCACCCCCAGCAAGAAGGCUGGAAUUCUCGGGUGCCAA	0.843
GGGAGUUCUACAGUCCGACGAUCUAACUAGAGGUAAUAAUUGGUAUUCAGGUAACUCAUUUACAGUCAUAAUGUGUUGUGAAAAUUUAAUCUUAAAAAUUAAAUUUUUAAACUAUGUGGGUCUGUGAAUUUCUUGGAAUUCUCGGGUGCCAA	0.453
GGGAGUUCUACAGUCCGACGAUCAUUCGAGACAGUGCUUCUGGAGGAGCCAUUGGAAAGACUGGAGAAGAUUCUAAUGGAUAGGAUUUAGAGAUGUGUUCUGUGUUCUUGACCAGUGAAGUAUGCUCUUGGGUUGGAAUUCUCGGGUGCCAA	1.04
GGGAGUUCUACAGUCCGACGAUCUUUAAGGGUUGUGAGCCCCUUGGGGGUUCAGGGAACUGCUUGCCCAGGGUGCAGUGUGAGUGUGAUGGGCCACCGGGGCAAGAGGGAAGGUGACCGCCCAGCUCUCCCACUGGAAUUCUCGGGUGCCAA	1.46
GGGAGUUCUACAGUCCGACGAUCCAUAGGCAGGAUUCCUAAUUCCUGCCACUCCCCCUAAGAGCAGGACUUCCCUAUGCCAGCACAUGUGCCCCAGGUGGGGCUGAGUACAGGUAACCUUGAGCUCAGCUUGGUGGAAUUCUCGGGUGCCAA	0.608
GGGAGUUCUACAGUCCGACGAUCGCUUUUCUGUCUUCUUCAACCUGGGAGAGACCCUGAAUUUGAGUGUGUUCUCUAAUCAAUAGUGGUUUAGCUUUCUUUUCUAUUUCACUCGUUUCUAGGGUUUUUUAUUUUGGAAUUCUCGGGUGCCAA	0.639
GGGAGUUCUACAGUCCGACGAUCAGGGAGCCCCUGAGCCCCAACCUUCCCCUGCCUCAGCCUUUGAUUGUCCAGGGUGAAGCUGUGGGAGAACCGCCUGGGCUACCAGUCAGAGCUGGUCUUUGGGCUGUGUUUGGAAUUCUCGGGUGCCAA	1.66
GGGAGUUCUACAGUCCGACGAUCGUAGCUGCCCUAAUGUUGCAUAUUAGGCGGCGGGGGCAGAGAUAAGGGCCAUCUCUCUGUGAUUCUGCCUCAGCUCCUGUCUUGCUGAGCCCUCCCCCAACCCACGCUCCUGGAAUUCUCGGGUGCCAA	0.274

Study 5 — technique: protein binding microarray; form: double-stranded DNA, one strand shown; medium: in vitro; concentration: not given; baseline: not given; reading: higher = stronger binding
Target: Histone acetyltransferase KAT6A, winged helix 2, GST fusion (KAT6A, Homo sapiens, UniProt Q92794, residues 85-181)
Notes: 8-mer, flanks averaged, mean of 2 arrays, mostly near background
Construct (chain): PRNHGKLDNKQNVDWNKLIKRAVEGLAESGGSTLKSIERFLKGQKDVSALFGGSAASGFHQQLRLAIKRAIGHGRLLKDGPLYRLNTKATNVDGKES
Oligonucleotide	E-score
AAGTTCTC	0.0464
GTAGCCCA	-0.0566
GTTTGTCA	0.0226
GAGCGTGC	0.113
GTGGACTA	0.0683
AAACGGAC	-0.0942
CCACATAA	0.0241
TACTACGA	-0.162
AACCACAG	-0.119
GGCCGGCA	0.279
CGCAGAAC	0.177
CGGCTCCC	0.0486
CAGGGGGG	-0.116
TATATCCA	-0.115
GCGAAAGA	-0.0223
ACGGAACT	0.0247
GCACCGCC	0.189
AAGCCACC	-0.161
GTCACCGA	0.0864
GCCCCAGC	0.232
AGAGTCTG	-0.148
ACTTCTGG	-0.175
ATAAGTAA	-0.0664
AGCCCATC	-0.12
CATCAAGA	0.0897

Repeated from above (study 5):
Oligonucleotide	E-score
AACCACAG	-0.119
GGCCGGCA	0.279
CGCAGAAC	0.177
CGGCTCCC	0.0486
CAGGGGGG	-0.116
TATATCCA	-0.115
GCGAAAGA	-0.0223
